Assay results gathered from unrelated publications.
Lines come from different studies, so protocols differ.
Target: Mu-type opioid receptor (Oprm1, Rattus norvegicus, UniProt P33535)
UniProt P33535, sequence (whole entry, looked up): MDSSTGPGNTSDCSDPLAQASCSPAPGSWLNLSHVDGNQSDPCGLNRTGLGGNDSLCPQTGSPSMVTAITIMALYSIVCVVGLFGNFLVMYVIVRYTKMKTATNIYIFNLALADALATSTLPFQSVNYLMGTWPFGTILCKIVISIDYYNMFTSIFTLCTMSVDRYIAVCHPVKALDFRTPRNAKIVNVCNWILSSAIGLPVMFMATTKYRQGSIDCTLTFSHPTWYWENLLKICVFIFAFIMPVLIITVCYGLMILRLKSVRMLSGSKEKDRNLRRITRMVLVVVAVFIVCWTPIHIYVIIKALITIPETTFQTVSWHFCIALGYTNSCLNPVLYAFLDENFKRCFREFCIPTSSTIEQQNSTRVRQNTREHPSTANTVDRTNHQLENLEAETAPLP
Action: agonist

| Structure (SMILES) | assay | setting | EC50 |
| --- | --- | --- | --- |
| Cc1cc(O)cc(C)c1CC(N)C(=O)NC1CCNc2c(CN3CCOCC3)cc(Cc3ccccc3)cc21 (stereo not drawn) | GTPγS binding, radiometric | cell membranes | 0.0018 µM |
| CCCC[C@@H]1NC(=O)[C@H](Cc2ccccc2)NC(=O)CNC(=O)[C@H](NC(=O)[C@@H](N)Cc2ccc(O)cc2)C(C)(C)SSC(C)(C)[C@@H](C(=O)N[C@@H](Cc2c[nH]c3ccccc23)C(=O)NCc2cc(C(F)(F)F)cc(C(F)(F)F)c2)NC(=O)[C@@H]2CCCN2C1=O |  |  | 2.14 µM |
| CC(C)C[C@H](NC(=O)[C@H](Cc1ccc2ccccc2c1)NC(=O)CNC(=O)[C@H](NC(=O)[C@@H](N)Cc1ccc(O)cc1)[C@H](C)O)C(=O)N[C@@H](CO)C(N)=O | GTPγS binding, radiometric | cell membranes | 0.013 µM |
| Cc1cc(O)cc(C)c1CC(N)C(=O)NC1CCNc2ccc(Cc3cccnc3)cc21 (stereo not drawn) | GTPγS binding, radiometric | cell membranes | 0.093 µM |
| CC(C)C[C@H](NC(=O)[C@H](Cc1ccc2ccccc2c1)NC(=O)CNC(=O)[C@H](NC(=O)[C@@H](N)Cc1ccc(O)cc1)[C@H](C)O)C(=O)N[C@@H](CO[C@@H]1O[C@H](CO)[C@@H](O)[C@H](O)[C@H]1O)C(N)=O | GTPγS binding, radiometric | cell membranes | 0.11 µM |
| CCc1cc(Cc2ccccc2)cc2c1NCCC2NC(=O)C(N)Cc1c(C)cc(O)cc1C (stereo not drawn) | GTPγS binding, radiometric | cell membranes | 0.0062 µM |
| CC(=O)N1CCC(NC(=O)C(N)Cc2c(C)cc(O)cc2C)c2cc(CN3CCC4CCCCC4C3)ccc21 (stereo not drawn) | GTPγS binding, radiometric | cell membranes | 0.04 µM |
| Cc1cc(O)cc(C)c1CC(N)C(=O)NC1CCNc2c(F)cc(Cc3ccccc3)cc21 (stereo not drawn) | GTPγS binding, radiometric | cell membranes | 0.0016 µM |
| Cc1cc(O)cc(C)c1CC(N)C(=O)NC1CCNc2ccc(CN3CCCCC3)cc21 (stereo not drawn) | GTPγS binding, radiometric | cell membranes | 0.009 µM |

Excerpt of the above:
| Structure (SMILES) | assay | setting | EC50 |
| --- | --- | --- | --- |
| Cc1cc(O)cc(C)c1CC(N)C(=O)NC1CCNc2ccc(Cc3cccnc3)cc21 (stereo not drawn) | GTPγS binding, radiometric | cell membranes | 0.093 µM |
